# Measured values from different studies.
# A part holds a random share of what one study measured. Substitutions count along the parent as printed.

# Sample 1
# Target: Ras GTPase-activating protein-binding protein 1, RRM domain (G3BP1, Homo sapiens, UniProt Q13283)
# Chain of UniProt Q13283 (whole entry, looked up): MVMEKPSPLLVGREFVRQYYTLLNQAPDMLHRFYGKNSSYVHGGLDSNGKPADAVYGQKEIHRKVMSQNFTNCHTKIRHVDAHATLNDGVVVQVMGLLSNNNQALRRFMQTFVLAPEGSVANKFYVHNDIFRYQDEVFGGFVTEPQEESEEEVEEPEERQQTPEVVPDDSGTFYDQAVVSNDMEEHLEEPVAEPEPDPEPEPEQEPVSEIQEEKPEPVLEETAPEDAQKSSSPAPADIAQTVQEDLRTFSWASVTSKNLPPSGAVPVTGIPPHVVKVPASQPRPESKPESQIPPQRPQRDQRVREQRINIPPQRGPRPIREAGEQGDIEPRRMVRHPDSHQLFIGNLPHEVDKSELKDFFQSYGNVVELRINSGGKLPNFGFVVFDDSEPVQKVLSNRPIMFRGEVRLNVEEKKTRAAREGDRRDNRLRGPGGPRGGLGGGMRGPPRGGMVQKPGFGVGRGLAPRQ
# Technique: RNA Bind-n-Seq
# Molecule type: RNA
# Matrix: in vitro
# Concentration: 1 µM
# Notes: whole 134-nt RNA, ends assumed
# With: 150 mM KCl
# Baseline: input library
# Reading: higher = stronger binding
# Shared flanks, not repeated: GGGAGUUCUACAGUCCGACGAUC … UGGAAUUCUCGGGUGUCAAGG
Oligonucleotide,log2 enrichment
CAAGUCCUGUGCUACACAUCGUAUGUACCGAAUCGGAAAAAAAGGUUUUUGGUGGAAAGUAUUAUGUUACGCCGUUCGGAUCUGCACUUC,-0.215
GCAGGAAGUAAAAACAAAUGGAAAUGCUUCGGAUAGUGGCAGGGGUGGGGGUUGCUAAGGAAAGGGUGGGAUGGGAGUGGGUAAAGAGUU,1.22
UCCUGUGCUACACAUCGUAUGUACCGAAUCGGAAAAAAGGGAAAAAAGGGAAAAAAGGGGAAAGUAUUAUGUUACGCCGUUCGGAUCUGC,0.00368
AAGUCCUGUGCUACACAUCGUAUGUACCGAAUCGGGGAAAGGGGAGGGGUUUGGGGAAAGUAUUAUGUUACGCCGUUCGGAUCUGCACUU,0.879
CCUGUGCUACACAUCGUAUGUACCGAAUCGUGUGUGUGUGUGUGUGUGUGUGUGUGUGUGUAAAGUAUUAUGUUACGCCGUUCGGAUCUG,0.134
GUCCUGUGCUACACAUCGUAUGUACCGAAUCGGGGUUUUUUUGGGGAAAGGGGAGGGGAAAGUAUUAUGUUACGCCGUUCGGAUCUGCAC,0.879
UCCUGUGCUACACAUCGUAUGUACCGAAUCGGGAAAAAAGGGAAAAAAGGGAAAAAAGGGAAAGUAUUAUGUUACGCCGUUCGGAUCUGC,0.145
AAAAGACAACACGCACCCACACAGACACAGAGGGAAGGGGUUGGGAUGGGGACAGGGUGCACAGCAGGGCGGGGUAGGACCCCAGCCCCU,0.0221
UCCUGUGCUACACAUCGUAUGUACCGAAUCGGCCCCCCGGGGCCCCCCGGGGCCCCCCGGAAAGUAUUAUGUUACGCCGUUCGGAUCUGC,-0.455
UAACUUUAGAGGAGGAUCUGAUGGAUAUGGCAGUGGACGUGGAUUUGGGGAUGGCUAUAAUGGGUAUGGAGGAGGACCUGGAGGCGGCAA,-0.356
CUCAAGUCCUGUGCUACACAUCGUAUGUACCGAAUCGGAAGGGGAAGGGAAGGGAAAGUAUUAUGUUACGCCGUUCGGAUCUGCACUUCC,0.641
AGUCCUGUGCUACACAUCGUAUGUACCGAAUCGGGGAAAAAAAGGGGUGGGGAGGGGAAAGUAUUAUGUUACGCCGUUCGGAUCUGCACU,0.924
GCAGGAAGUAAAAACAAAUGGAAAUGCUUCGGAUAGUGGCAGGGGUGGGGGUUGCUAAGGAAAGGGUGUGAUGGGAGUGGGUAAAGAGUU,1.48
UGAACCUUCCAAUAGCAACCAAGAAAUAAACUCUGAUGACAGACGACCCCAAUGGAGACGAGAAGACCGAAUUCCUUACCAAGACAGAGA,-0.134

# Sample 2
# Target: RING finger protein unkempt homolog, zinc fingers 1-6, GST-SBP tag (UNK, Homo sapiens, UniProt Q9C0B0, residues 30-357)
# Technique: RNA Bind-n-Seq
# Molecule type: RNA
# Matrix: in vitro
# Concentration: not given
# Notes: RNA with constant flanks, human and mouse sites, ends assumed
# Baseline: input RNA pool
# Reading: higher = stronger binding
# Shared flanks, not repeated: GGGAGUUCUACAGUCCGACGAUC … CAACAGAGGAUUGAGCAUCA
# Construct (chain): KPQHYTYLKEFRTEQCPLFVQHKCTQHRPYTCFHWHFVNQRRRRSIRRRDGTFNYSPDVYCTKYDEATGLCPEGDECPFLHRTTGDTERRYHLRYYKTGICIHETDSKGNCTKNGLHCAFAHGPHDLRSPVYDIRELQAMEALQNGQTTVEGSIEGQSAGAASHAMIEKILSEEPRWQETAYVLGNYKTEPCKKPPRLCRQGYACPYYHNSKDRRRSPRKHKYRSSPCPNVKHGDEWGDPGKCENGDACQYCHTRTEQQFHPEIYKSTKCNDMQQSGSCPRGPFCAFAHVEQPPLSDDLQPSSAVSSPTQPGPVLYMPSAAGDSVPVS
Oligonucleotide,bound/input enrichment
GUGGGCUAUCAUCUUUUUUCCUGUCAUCGGUCAGAAAAAACUUGUCGGAGAUGGAUGGCAUUGGAUUAUGCAGGAAUUUCUAUUGGAAUACUGGGCUGCUAUGUCUCAGGAGUAUUUUAU,0.64 ratio
GUUUGCUGACACCAUCAAGCAGCUGAGCCAGAAUACAUACACUCCUCGUGAGGCUGGAUCUCAAAAAGAUGAAAGUCUUGCCUAUUAUAUUGAAAAUCAGUUCCAUGAAUUUAAAUUCAG,0.166 ratio
ACAUGAGAGAACCCACACUGGAGAGAAACCCUAUGAAUGUAUUGACUGUGGGAAAGCCUUUAGUCAAAGUUCAUCUCUCAUUCAGCAUGAGAGAACUCAUACUGGAGAGAAGCCCUAUGA,0.194 ratio
GGCUUCAGGAACAUCAUAGCAGAUCCUGUCACCUUCAAGACCAAAUCGAGCUAUGUUGCCUUAGCUACCUUGCAAGCCUACACUUCUAUGCAUCUUUUUUUCCAGUUCAAGACAACAUCC,0.294 ratio
GUCCUCACCGCCUGUUUCGGGUCCUUUGCUCACGGCGGCAAUGACGUGAGUAAUGCCAUCGGUCCCCUGGUAGCCUUGUGGCUGAUUUACAAACAAGGCGGGGUAACGCAAGAAGCAGCU,0.171 ratio
AUGGUGCAAAAUGUGAGCUUCAAGUAUACAAAAGAUGGGCCUUGCAUCUACAAUAAUCUAGAAUUUGGAAUUGACCUUGACACACGAGUGGCUCUGGUAGGGCCCAAUGGAGCAGGGAAG,3.14 ratio
UUGAUCAGGGAAGACUUAGGGUUCAGAUUUAUAUCUGAGCAGGUCAGUCACCACCCUCCUAUUAGCGCAUUUUAUUCAGAAGGUCUCAAUCAAGACUUCAGGUUCCACGGUUCCAUCUAC,38.4 ratio
CUGACCAGAGUCUCUGAAGACCCCAUCCAACGCUCCAAUGGCCAGCAACAACACCGCCAGCAUAGCACAAGCCAGGAAGCUGGUAGAACAGCUGAAGAUGGAAGCCAACAUCGACAGGAU,0.0792 ratio
CCUUUCUGUUACUUGACUCUUCCAUUGCCUAUGAAAAAAGAACGUAGCUUGGAAGUUUAUUUAGUUAGAAUGGAUCCACUUGCUAAACCUAUGCAAUACAAAGUUAUUGUGCCCAAAAUU,0.177 ratio
AUCUGGGCUGCAUCUCUUCCAAGUUACCAGAAGGGCUAAUUCUUCCUUGAGAACAUUAUUUAUUCUUCAACAAUAAAUCUUCGGCAAUAGGACUGUAUUUAGCCUGUAUUGUCCCUACCC,0.273 ratio
UCUGAAUCUGAACAGGCUCUUAAAGGUACUUCUCAGAUUAAAUUACUCUCAUCUGAAGAUAUAGAAGGGAUGCGACUUGUAUGUAGGCUUGCUAGAGAAGUUUUGGAUGUUGCUGCCGGC,1.09 ratio

# Sample 3
# Target: Histone acetyltransferase KAT6A, winged helix 1, GST fusion (KAT6A, Homo sapiens, UniProt Q92794, residues 1-85)
# Technique: protein binding microarray
# Molecule type: double-stranded DNA, one strand shown
# Matrix: in vitro
# Concentration: not given
# Notes: 8-mer, flanks averaged, mean of 2 arrays, mostly near background
# Baseline: not given
# Reading: higher = stronger binding
# Residues (chain): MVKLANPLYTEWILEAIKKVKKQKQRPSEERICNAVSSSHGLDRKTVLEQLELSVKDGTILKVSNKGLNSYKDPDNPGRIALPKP
Oligonucleotide,E-score
AGCAAGCG,0.172
ATAATCTC,-0.0528
CTCTCGAC,-0.139
ATTACTAC,-0.123
AACGCTTG,-0.0602
ATGGACAC,-0.0985
AGCTTCAT,-0.0485
AAGCCTTG,-0.0691
TCGAAGAA,-0.203
GGACCAAC,0.0279
TCTCCTCA,-0.0609
CGTCACCA,0.0292
GGGAGGAA,0.0521
AGACCTTC,-0.0676
CGGTCCCC,0.205
TAATCTCA,-0.101
CAACCGGG,0.242
CGCGGGCA,0.394
CCCCGCTA,0.347
CGCACTCC,0.256
CCGTCAAC,0.144
ACTCAATA,-0.198
CCTTGTCC,-0.0574
CCGGTTAA,0.309
CCACCGGG,0.262

# Sample 4
# Target: Interferon regulatory factor 5, full length, phosphomimetic (IRF5, Homo sapiens, UniProt Q13568-2, residues 1-514, S451D/S453D/S456D/S462D)
# Technique: protein-binding microarray
# Molecule type: double-stranded DNA, one strand shown
# Matrix: in vitro
# Concentration: 940 nM top
# Notes: 60-bp whole probe
# With: salmon DNA 0.4 mg/ml
# Baseline: random background probes
# Reading: higher = stronger binding
# Shared flanks, not repeated: GCCTAGCAC … GTCTTGATTCGCTTGACGCTGCTG
Oligonucleotide,fitted relative affinity
TCACTTTTATTTTCAGTACTGTGCTAG,1.82 z-score
GACGGACTGCTTATACTGACGTGCTAG,-0.134 z-score
GACGGTCTCGGACTGGGAACGTGCTAG,0.549 z-score
TTAGGTTTCGGGATTGGGTTAGTGCTA,8.66 z-score
TTAGGTATGCTTATCCTTTAGTGCTAG,-0.235 z-score
TTAGATCTCAGTATCGATTTGTGCTAG,4.16 z-score
TCATGTTTCTCAACCAGACTGTGCTAG,0.788 z-score
TTAGATCTCACTATCGATTAGTGCTAG,1.39 z-score
TTAGATATAAGACTGGATTAGTGCTAG,-0.366 z-score
GACGATTTCGGGTTTCGAGTCGTGCTA,4.19 z-score
CACTCTCTGCTTGTATCTGGGTGCTAG,3.14 z-score
TCAGCTTTCTCTTTCATACTGTGCTAG,2.41 z-score
TTAGGTATCGGGGATCGGTTAGTGCTA,3.79 z-score
TTATGTCTCGGTTTCGGTTAGTGCTAG,10.3 z-score
ATTTCTTTCTAATTCAAAGTGTGCTAG,1.06 z-score
TTAGGTATCGAACTGGGTTAGTGCTAG,2.95 z-score
TCTCCTTTCGGAATACCCTCGTGCTAG,3.11 z-score
TTAGATATCGAGACTGGATTAGTGCTA,0.907 z-score
GACGATTTCACACTGGAGACGTGCTAG,0.17 z-score
TTAGATCTCAGTCTCCATTAGTGCTAG,0.704 z-score
GACGTTTTCGGTCTCGGGACGTGCTAG,4.18 z-score
GACCATTTCAGTATCGAGACGTGCTAG,2.79 z-score
TTAGGTCTCCTCATCCTTTAGTGCTAG,0.642 z-score
TTGGGTCTCGGTTTCGGTTAGTGCTAG,9.62 z-score
AGATATCTGCACTCTCATGTGTGCTAG,0.217 z-score

# Sample 5
# Target: CCNB1, cyclin fold, Cln2 fusion (human)
# Technique: yeast growth competition, sequencing
# Matrix: yeast
# Notes: weak parent motif
# Baseline: not given
# Reading: higher = stronger binding
# Starting sequence: CDC6 docking peptide (human); TLKGRRLVFDNQL
Change,normalised enrichment score
TLKGRRLVFDAQL [N11A],0.772
TLKGRRGVFDNQL [L7G],0.524
TYKGRRLVFDNQL [L2Y],0.0767
TLKGRRTVFDNQL [L7T],-0.459
TLKGRRLMFDNQL [V8M],0.177
TLKGGRLVFDNQL [R5G],-0.0422
TLCGRRLVFDNQL [K3C],0.761
TLKGRRLVNDNQL [F9N],0.385
TKKGRRLVFDNQL [L2K],0.621
TLKGNRLVFDNQL [R5N],-0.141
TLKGRRNVFDNQL [L7N],0.402
TAKGRRLVFDNQL [L2A],-0.105
TLKGRRLKFDNQL [V8K],0.525
TLNGRRLVFDNQL [K3N],-0.0662
TLKGRRLVFDNQQ [L13Q],0.683
TLKGRRLVFDTQL [N11T],0.498
TDKGRRLVFDNQL [L2D],-0.268
TLKGRRLVFDNRL [Q12R],0.0332
TLKGDRLVFDNQL [R5D],0.182
TLKGRRLVFDMQL [N11M],0.133
FLKGRRLVFDNQL [T1F],-0.646

# Excerpt of the above (sample 4):
Oligonucleotide,fitted relative affinity
TCTCCTTTCGGAATACCCTCGTGCTAG,3.11 z-score
GACGGACTGCTTATACTGACGTGCTAG,-0.134 z-score
TTAGATCTCAGTCTCCATTAGTGCTAG,0.704 z-score
TCATGTTTCTCAACCAGACTGTGCTAG,0.788 z-score
CACTCTCTGCTTGTATCTGGGTGCTAG,3.14 z-score
GACGGTCTCGGACTGGGAACGTGCTAG,0.549 z-score
TTATGTCTCGGTTTCGGTTAGTGCTAG,10.3 z-score
TTAGGTATGCTTATCCTTTAGTGCTAG,-0.235 z-score
GACCATTTCAGTATCGAGACGTGCTAG,2.79 z-score
TTAGATCTCAGTATCGATTTGTGCTAG,4.16 z-score
TTAGATATCGAGACTGGATTAGTGCTA,0.907 z-score
TTGGGTCTCGGTTTCGGTTAGTGCTAG,9.62 z-score
